Results gathered from unrelated publications.
Compare with care: the assays were run in different laboratories. Numbers after ± are the reported error.

With `COc1cc2c(cc1OC)-c1cc3ccc(OC)c(OC)c3c[n+]1CC2` the TBARS was 2.97 ± 0.83 nmol MDA/mg protein (rat, STZ-induced diabetic, liver; oral, 12 mg/kg, day 28).
The relative potency of `CCCC[C@H](NC(=O)[C@@H](NC(=O)[C@H](CC(=O)O)NC(=O)[C@H](CCC(N)=O)NC(=O)[C@H](CC(C)C)NC(=O)[C@H](CC(C)C)NC(=O)[C@H](CCCN)NC(=O)[C@H](CCCNC(=N)N)NC(=O)[C@H](C)NC(=O)[C@H](CO)NC(=O)[C@H](CC(C)C)NC(=O)[C@H](CCC(N)=O)NC(=O)[C@H](CC)NC(=O)[C@H](CC(C)C)NC(=O)[C@@H](NC(=O)[C@H](CCCN)NC(=O)[C@H](CCCNC(=N)N)NC(=O)[C@H](Cc1ccc(O)cc1)NC(=O)[C@H](CO)NC(=O)[C@H](CCC(N)=O)NC(=O)[C@@H](NC(=O)[C@H](Cc1c(F)c(F)c(F)c(F)c1F)NC(=O)[C@@H](NC(=O)[C@H](C)NC(=O)[C@H](CC(=O)O)NC(=O)[C@@H](C)NC(=O)[C@H](Cc1ccc(O)cc1)NC)[C@@H](C)CC)[C@@H](C)O)C(C)C)[C@@H](C)CC)C(=O)N[C@@H](CC(=O)O)C(=O)N[C@@H](CCCNC(=N)N)C(=O)NC` is reported as 1.33 (GH release; rat, male, serum; subcutaneous, 3 µg/kg, 30 min; baseline: reference GHRH agonist JI-38).
Under “concentration doubling prothrombin time”, `CC(=N)N(C)c1ccc(C(=O)Nc2ccc(Cl)cc2C(=O)Nc2ccc(Cl)cn2)cc1` is recorded as 0.12 ± 0.03 µM (human plasma).
The relative potency of `CCCC[C@H](NC(=O)[C@@H](NC(=O)[C@H](CC(=O)O)NC(=O)[C@H](CCC(N)=O)NC(=O)[C@H](CC(C)C)NC(=O)[C@H](CC(C)C)NC(=O)[C@H](CCCN)NC(=O)[C@H](CCCNC(=N)N)NC(=O)[C@H](C)NC(=O)[C@H](CO)NC(=O)[C@H](CC(C)C)NC(=O)[C@H](CCC(N)=O)NC(=O)[C@H](CC)NC(=O)[C@H](CC(C)C)NC(=O)[C@@H](NC(=O)[C@H](CCCN)NC(=O)[C@H](CCCNC(=N)N)NC(=O)[C@H](Cc1ccc(O)cc1)NC(=O)[C@H](CO)NC(=O)[C@H](CC(N)=O)NC(=O)[C@@H](NC(=O)[C@H](Cc1ccccc1)NC(=O)[C@@H](NC(=O)[C@H](C)NC(=O)[C@H](CC(=O)O)NC(=O)[C@@H](CC)NC(=O)CCc1ccc(O)cc1)[C@@H](C)CC)[C@@H](C)O)C(C)C)[C@@H](C)CC)C(=O)N[C@@H](CO)C(=O)N[C@@H](CCCNC(=N)N)C(=O)NCCCC(N)=O` is reported as 52.6 (GH release; male rat, serum; subcutaneous, dose not given, 15 min; baseline: GHRH(1-29)NH2).
Under “hot plate latency”, `COc1c2c(cc3oc(C)cc(=O)c13)O[C@H](C(C)(C)O[C@@H]1O[C@H](CO)[C@@H](O)[C@H](O)[C@H]1O)C2` is recorded as 9.76 ± 3.5 s (analgesia; mouse; oral, 4 mg/kg, 1.5 h).
`CCCCC1NC(=O)c2ccccc21` (racemic) — result for “black tail occurrence”: 50% (thrombosis; mouse, carrageenan-induced thrombosis; oral, 20 mg/kg daily for 2 days, 48 h after carrageenan).
For `CC12N3Cc4c(c(OCCCS(=O)(=O)[O-])c5ccccc5c4OCCCS(=O)(=O)[O-])CN1C(=O)N1Cc4c(c(OCCCS(=O)(=O)[O-])c5ccccc5c4OCCCS(=O)(=O)[O-])CN(C3=O)C12C.[Na+].[Na+].[Na+].[Na+]` (stereo not shown), the association constant was 2600 M⁻¹ (phase solubility; together with: β-estradiol).
`COC(=O)[C@H](CSSC(C)(C)[C@H](NC(=O)[C@H](CCC(=O)NC[C@H](O)[C@@H](O)[C@H](O)[C@H](O)CO)NC(=O)[C@H](CCC(=O)O)NC(=O)[C@H](CCC(=O)NC[C@H](O)[C@@H](O)[C@H](O)[C@H](O)CO)NC(=O)[C@H](CCC(=O)O)NC(=O)[C@H](CCC(=O)NC[C@H](O)[C@@H](O)[C@H](O)[C@H](O)CO)NC(=O)CC[C@H](NC(=O)c1ccc(NCc2cnc3nc(N)[nH]c(=O)c3n2)cc1)C(=O)O)C(=O)O)NC(=O)CC[C@H](NC(=O)c1ccc(NCc2cnc3nc(N)nc(N)c3n2)cc1)C(=O)O`: “T and B lymphocytes” “no effect” (flow cytometry; Lewis rat, healthy or arthritic, blood; 1000 nmol/kg twice weekly × 1).
`O=C1CC(c2ccc(O)cc2)Oc2c1c(O)cc1oc3cc(O)c(O)cc3c21` (racemic) has an EC50 of 1190 µM (ABTS scavenging, absorbance).
Under “body weight loss”, `CCCCCCCCCCCCCCCC(=O)N[C@@H](CCC(=O)NCCCC[C@H](NC(=O)[C@H](CC(=O)O)NC(=O)[C@H](CO)NC(=O)[C@@H](NC(=O)[C@H](Cc1ccccc1)NC(=O)[C@@H](NC(=O)CNC(=O)[C@H](CCC(N)=O)NC(=O)[C@H](CO)NC(=O)[C@@H](N)Cc1c[nH]cn1)[C@@H](C)O)[C@@H](C)O)C(=O)N[C@@H](CO)C(=O)N[C@@H](CCC(=O)O)C(=O)N[C@@H](Cc1ccc(O)cc1)C(=O)N[C@@H](CC(C)C)C(=O)N[C@@H](CC(=O)O)C(=O)N[C@@H](CO)C(=O)N[C@@H](CCC(=O)O)C(=O)N[C@@H](CCCNC(=N)N)C(=O)N[C@@H](C)C(=O)N[C@@H](CCCNC(=N)N)C(=O)N[C@@H](CC(=O)O)C(=O)N[C@@H](Cc1ccccc1)C(=O)N[C@H](C(=O)N[C@@H](C)C(=O)N[C@@H](Cc1c[nH]c2ccccc12)C(=O)N[C@@H](CC(C)C)C(=O)N[C@@H](CCC(=O)O)C(=O)N[C@@H](C)C(=O)NCC(=O)NCC(=O)O)C(C)C)C(=O)O` is recorded as 30% (diet-induced obese mouse; subcutaneous, 30 nmol/kg daily, 4 weeks; baseline: starting body weight).

Repeated from above:
With `COc1cc2c(cc1OC)-c1cc3ccc(OC)c(OC)c3c[n+]1CC2` the TBARS was 2.97 ± 0.83 nmol MDA/mg protein (rat, STZ-induced diabetic, liver; oral, 12 mg/kg, day 28).
The relative potency of `CCCC[C@H](NC(=O)[C@@H](NC(=O)[C@H](CC(=O)O)NC(=O)[C@H](CCC(N)=O)NC(=O)[C@H](CC(C)C)NC(=O)[C@H](CC(C)C)NC(=O)[C@H](CCCN)NC(=O)[C@H](CCCNC(=N)N)NC(=O)[C@H](C)NC(=O)[C@H](CO)NC(=O)[C@H](CC(C)C)NC(=O)[C@H](CCC(N)=O)NC(=O)[C@H](CC)NC(=O)[C@H](CC(C)C)NC(=O)[C@@H](NC(=O)[C@H](CCCN)NC(=O)[C@H](CCCNC(=N)N)NC(=O)[C@H](Cc1ccc(O)cc1)NC(=O)[C@H](CO)NC(=O)[C@H](CCC(N)=O)NC(=O)[C@@H](NC(=O)[C@H](Cc1c(F)c(F)c(F)c(F)c1F)NC(=O)[C@@H](NC(=O)[C@H](C)NC(=O)[C@H](CC(=O)O)NC(=O)[C@@H](C)NC(=O)[C@H](Cc1ccc(O)cc1)NC)[C@@H](C)CC)[C@@H](C)O)C(C)C)[C@@H](C)CC)C(=O)N[C@@H](CC(=O)O)C(=O)N[C@@H](CCCNC(=N)N)C(=O)NC` is reported as 1.33 (GH release; rat, male, serum; subcutaneous, 3 µg/kg, 30 min; baseline: reference GHRH agonist JI-38).
